Experimental data from different studies.
Lines come from different studies, so protocols differ. ± marks the error that the study gave.

Structure (SMILES) | target or system | test | test system | conditions | scale | measurement | value
O=C1CNC(=O)c2coc(n2)-c2coc(n2)-c2cccc(c2)-c2cccc(c2)-c2nc(co2)-c2nc(co2)CN1 | salmon testes duplex DNA | UV melting | – | 15 µM, pH 7.5, with: 150 mM K+ | relative to: DNA without compound | melting temperature shift | 0.6 °C
Nc1nc2c(nc(Br)n2[C@@H]2O[C@@H]3COP(=O)(O)O[C@H]3[C@H]2O)c(=O)[nH]1 | cone cGMP-gated channel | ion current, agonist, inside-out patch clamp | – | endogenous modulator present, -40 mV | – | EC50 | 22 µM
CC(=O)N1CCC(NC(=O)NC23CC4CC(CC(C4)O2)C3)CC1 | IL-6, TNF-alpha, CHOP, TRB3 | – | AR-42J | 60 µM, with: cerulein 10 nM | relative to: cerulein alone | mRNA level | decreased
CCN(CC)CCOc1ccc(NS(=O)(=O)c2ccc(CN3CCCC3)cc2)cc1 | CXCR4 | CXCL12-induced cell invasion, Matrigel invasion | MDA-MB-231 | 100 nM (0.1 µM), with: CXCL12 200 ng/mL | relative to: reference compound as 100% | inhibition | 82%
O=C1N[C@@H](Cc2ccccc2)C(=O)NCc2coc(n2)-c2coc(n2)-c2cccc(c2)-c2cccc(c2)-c2nc(co2)-c2nc1co2 | salmon testes duplex DNA | UV melting | – | 15 µM, pH 7.5, with: 50 mM K+ | relative to: DNA without compound | melting temperature shift | -1 °C
Cc1ccc2cc(-c3ccccc3)[nH]c2c1 | HEK293 | cell growth or viability | – | 50 µM | – | viability | 84.2%
CN(C)CCc1cc2cc(c1)CNC(=O)c1coc(n1)-c1coc(n1)-c1cccc(n1)-c1nc(co1)-c1nc(co1)C(=O)NC2 | salmon testes duplex DNA | UV melting | – | 15 µM, pH 7.5, with: 150 mM K+ | relative to: DNA without compound | melting temperature shift | 0.7 °C
CCCCOc1cc(CC2CNC(=O)N2)ccc1OC (centres unmarked) | phosphodiesterase 4, human | enzyme activity, inhibitor | HEK293 expressing CNG channel C460W/E583M | with: forskolin 0.5 µM | – | Ki | 0.13 ± 0.02 µM
CC(C)[C@H](N)C(=O)O | Na+-independent amino acid transport, mouse | inhibitor | Ehrlich ascites cells | 1 min, pH 7.4, Na+-free choline medium, with: methionine | – | Ki | 600 µM
COc1ccc(S(=O)(=O)NCc2ccc(CNS(=O)(=O)c3ccc(OC)cc3)cc2)cc1 | CXCR4 | CXCL12-induced cell invasion, Matrigel invasion | MDA-MB-231 | 10 nM (0.01 µM), with: CXCL12 200 ng/mL | relative to: reference compound as 100% | inhibition | 95%
CC(C)[C@H](NC(=O)[C@@H]1CCCN1C(=O)[C@H](CCCNC(=N)N)NC(=O)[C@H](CS)NC(=O)[C@H](Cc1c[nH]c2ccccc12)NC(=O)[C@H](CCCNC(=N)N)NC(=O)[C@@H](Cc1ccccc1)NC(=O)[C@H](Cc1c[nH]cn1)NC(=O)[C@H](CCC(=O)O)NC(=O)[C@H](CS)NC(=O)[C@H](CS)NC(=O)[C@H](CCCCN)NC(=O)[C@@H]1CC(=O)N[C@@H](CCCNC(=N)N)C(=O)N[C@@H](C)C(=O)N[C@@H](CC(=O)O)C(=O)N[C@H](Cc2ccc(O)cc2)C(=O)N1)C(N)=O [technetium-99m labelled] | – | – | C57 mice, spleen | intravenous, 0.037 MBq, 24 h | – | tissue uptake | 0.39 ± 0.24 %ID/g
COc1ccc(-n2nc(C(N)=O)c3c2C(=O)N(c2ccc(N4CCCCC4=O)cc2)CC3)cc1 | factor Xa rat | – | rat | dose not given, thrombosis inhibition above 50% | – | enzyme occupancy | > 99%
CN(Cc1ccccc1)S(=O)(=O)c1ccc(CN2CCCC2)cc1 | CXCR4 | CXCL12-induced cell invasion, Matrigel invasion | MDA-MB-231 | 100 nM (0.1 µM), with: CXCL12 200 ng/mL | relative to: reference compound as 100% | inhibition | 95 to 100%
CC(C)(C)c1cc(C(C)(C)C)c(NC(=O)c2c[nH]c3ccccc3c2=O)cc1O | CFTR S549N human | short-circuit current, potentiator | CFBE | 14.44 µM, with: forskolin 20 µM | relative to: PKA-activated wild type | CFTR activity | 48.5 ± 6.7%
CN(Cc1ccccc1)S(=O)(=O)c1ccc(CN2CCNCC2)cc1 | CXCR4 | CXCL12-induced cell invasion, Matrigel invasion | MDA-MB-231 | 100 nM (0.1 µM), with: CXCL12 200 ng/mL | relative to: reference compound as 100% | inhibition | 76%
CC(C)(C)OC(=O)NCC[C@@H]1NC(=O)c2coc(n2)-c2coc(n2)-c2cccc(c2)-c2cccc(c2)-c2nc(co2)-c2nc(co2)CNC1=O | salmon testes duplex DNA | UV melting | – | 15 µM, pH 7.5, with: 50 mM K+ | relative to: DNA without compound | melting temperature shift | 0.1 °C
N=C(N)NC(=O)c1nc(Cl)c(N)nc1N | stretch-activated cation channel, rat | ion current, outside-out patch clamp | rat astrocytes | 20 µM, holding -50 mV, pressure-activated | – | SAC current | no effect
